Published values of several laboratories.
Each line is one published result; not all experiments were run side by side. Several values in a cell are separate wells, animals, samples, runs or records.
Target: Proto-oncogene tyrosine-protein kinase ROS (ROS1, Homo sapiens, UniProt P08922)

O=c1c(-c2ccc(Cl)c(CN3CCOCC3)c2)coc2cc(O)ccc12 — remaining activity (enzyme activity, inhibitor; 1 µM): 104%
COc1c(OCCCN2CCOCC2)ccc2c1N=C(NC(=O)c1cnc(N)nc1)N1CCN=C21 — remaining activity (kinase activity, inhibitor; 1 µM; reference: untreated control): 109%
C=CC(=O)N1Cc2nc(-c3cc(-c4cc(Cl)cnc4Cl)c(F)cc3F)n(-c3ccncn3)c2C1 — inhibition (cell-free assay; 1 µM): 3.6%
Nc1ncc(-c2cc(-c3cnn(CC(F)(F)F)c3)ncc2F)nc1C(=O)NC1CNCC(F)C1 (stereo not drawn) — remaining activity (enzyme activity; 1 µM; reference: DMSO control): 26.9%
Nc1ncc2c(n1)-c1c([nH]c3ccc(C4=CCOCC4)cc13)CCC2 — remaining binding (binding, competition with immobilised ligand; 1 µM): 100%
C=CC(=O)Nc1cccc(-c2cnc3[nH]cc(C(=O)NC(C)(C)C)c3n2)c1 — inhibition (enzyme activity, inhibitor; 0.1 µM): 3%
CN1CC[C@@H](COc2cnc(C#N)cc2-c2ccn3nc(NC(=O)C4CC4)cc3c2)C1 — inhibition (enzyme activity, inhibitor; 1 µM): -22%
Cc1cccc(O[C@H]2CCC[C@@H](C(C)CNCc3ccncc3)C2)c1 (relative stereo) — inhibition (cell-free assay; 1 µM): 5%
COCC12C(=O)NC3C4(C(OC)CC1O)C1CC5(O)C(OC)C(O)C(OC(C)=O)(C1C5OC(=O)c1ccccc1)C3(O)C(OC)C24 (stereo not drawn) — remaining activity (kinase activity, inhibitor, ProQinase kinase profiling; 25 µM; reference: control): 104% and 103%
COc1c(Cl)cccc1Nc1c(-c2ccncc2C#C[C@@]2(C)CCCN2C(=O)/C=C/CN(C)C)[nH]c2c1C(=O)NCC2 — remaining binding (cell-free assay, competition with immobilised ligand; 3 µM): 100%
CNC(=O)C[C@H](Cc1ccc(C#N)cc1)NC(=O)c1cc(-c2ccc(CN[C@H](C)c3ccc(C)cc3)o2)ccc1Cl — activity vs control (enzyme activity, inhibitor; 1 µM): 124%
NC(=O)C[C@H]1CCc2sc3ncnc(O[C@H]4CC[C@H](N5CCOCC5)CC4)c3c21 — inhibition (enzyme activity, inhibitor; 10 µM): 28%
CC(C)=CC1OC(C)(C)C2C=C3C(=O)C(Cl)=CC(O)C3C3C(O)C4OC4C(=O)C132 (stereo not drawn) — remaining binding (cell-free assay, competition with immobilised ligand; 10 µM): 98%
O=C=[N][Ru-4]123([n]4c5ccc(O)cc5c5c6c(c7cc(F)c[n+]1c7c54)C(=O)NC6=O)[S+]1CC[S+]2CC[S+]3CC1 (stereo not drawn) — remaining activity (enzyme activity; 100 nM, human enzyme, together with: 10 µM ATP; reference: untreated): 102%
COc1cc(Nc2nccc(-c3cnn4nc(OC)ccc34)n2)cc(C(F)(F)F)c1 — remaining binding (binding, competition with immobilised ligand; 1 µM): 86%

Some of these lines once more:
CNC(=O)C[C@H](Cc1ccc(C#N)cc1)NC(=O)c1cc(-c2ccc(CN[C@H](C)c3ccc(C)cc3)o2)ccc1Cl — activity vs control (enzyme activity, inhibitor; 1 µM): 124%
Nc1ncc2c(n1)-c1c([nH]c3ccc(C4=CCOCC4)cc13)CCC2 — remaining binding (binding, competition with immobilised ligand; 1 µM): 100%
